Experimental data collected from several papers.
Compare with care: the assays were run in different laboratories. ± gives the spread as reported.

Compound = CC(=O)c1c([O-])cc(C)oc1=O.[Na+]; system = rat Wistar male, serum; conditions = intragastric, 200 mg/kg; Tmax = 0.94 ± 0.2 h
Compound = CC(=O)Oc1ccc2c3c1O[C@H]1[C@@H](OC(C)=O)C=C[C@H]4[C@@H](C2)N(C)CC[C@@]341; system = Sprague-Dawley rat, male, whole blood; conditions = intraperitoneal, 10 mg/kg, single dose alone; Tmax = 0.0333 h
Compound = C=CC[N+]1([C@H]2C[C@H]3[C@@H]4CC[C@H]5C[C@H](O)[C@@H](N6CCOCC6)C[C@]5(C)[C@H]4CC[C@]3(C)[C@H]2OC(C)=O)CCCC1; system = Sprague Dawley rat, plasma; conditions = intravenous, 0.2 mg/kg, together with: vehicle IV; Tmax = 0 h
Compound = CCc1cc(OC)cc2c(/C=N/NC(=N)NCCc3ccc(F)cc3)c[nH]c12; system = rat, Long-Evans, male, plasma; conditions = ip, 10 mg/kg; Tmax = 8 h
Compound = O=C(O)CCC(CP(=O)(O)O)C(=O)O (stereo not shown); system = male Wistar rat, brain; conditions = ip, 100 mg/kg; Tmax = 0.08 h
Compound = CN1CC[C@]23c4c5ccc(O[C@@H]6O[C@H](C(=O)O)[C@@H](O)[C@H](O)[C@H]6O)c4O[C@H]2[C@@H](O)C=C[C@H]3[C@H]1C5; system = Sprague-Dawley rat, whole blood; conditions = intraperitoneal, 10 mg/kg heroin, single heroin dose alone; Tmax = 1.19 ± 0.181 h
Compound = COc1ccc2c3c1O[C@H]1C[C@@H](OC(=O)c4ccccc4)C=C[C@@]31CCN(C)C2; system = Wistar rat, female, blood; conditions = intravenous, 5.0 mg/kg; Tmax = 0.08 h
Compound = COC(=O)[C@@H]1[C@H]2CC[C@@H](C[C@@H]1O)N2C; test = LC-MS/MS; system = Sprague-Dawley rat, whole blood; conditions = intraperitoneal, 20 mg/kg of cocaine; Tmax = 0.972 ± 0.0773 h
Compound = C#Cc1ccc2c(c1)C(c1ccccn1)=NCc1c(-c3cnco3)ncn1-2; system = Sprague Dawley rat, brain; conditions = oral, 2 mg/kg, cassette dosing; Tmax = ~1 h
Compound = COc1ccc(-c2cc(=O)c3c(OC)c(OC)c(OC)c(OC)c3o2)cc1OC; system = Sprague Dawley rat, plasma; conditions = oral, 10 g lyophilized powder/kg, high dose; Tmax = 2.07 ± 1.1 h
Compound = Cc1ccc(S(=O)(=O)Nc2c(N[C@H]3CC[C@H](NC(=O)Nc4ccc(F)c(Cl)c4)CC3)c(=O)c2=O)cc1; system = rat, plasma; conditions = oral, 20 mg/kg; Tmax = 7 h
Compound = O=C1C[C@@H](c2ccc(O)cc2)Oc2cc(O)ccc21; system = Sprague Dawley rat, plasma; conditions = oral, 3.34 g lyophilized powder/kg, low dose; Tmax = 3.45 ± 2.39 h
Compound = CCCCCn1cc(C(=O)Nc2cccc3ccccc23)c2ccccc21; system = rat, plasma; conditions = intraperitoneal, 3 mg/kg, mean of 4; Tmax = 2.63 h
Compound = COc1c(O)cc(O)c2c(=O)cc(-c3ccccc3)oc12; system = Sprague Dawley rat, plasma; conditions = oral, 10 g lyophilized powder/kg, high dose; Tmax = 5.55 ± 2.17 h
Compound = COC[C@@]12CC[C@H](OC)[C@]34C(C([C@H](OC)[C@H]13)[C@]1(OC(C)=O)[C@H]3[C@@H](OC(=O)c5ccccc5)[C@](O)(C[C@H]34)[C@@H](OC)[C@@H]1O)N(C)C2; system = Sprague-Dawley rat, plasma; conditions = oral, dose not given, in PCW extract; Tmax = 0.667 ± 0.144 h
Compound = O=C1C[C@@H](c2ccc(O[C@@H]3O[C@H](CO)[C@@H](O)[C@H](O)[C@H]3O)cc2)Oc2cc(O)ccc21; system = Sprague Dawley rat, plasma; conditions = oral, 10 g lyophilized powder/kg, high dose; Tmax = 0.14 ± 0.06 h
Compound = O=[Se](=O)([O-])[O-].[Na+].[Na+]; system = rat; conditions = intraperitoneal, 1 mg/kg; Tmax = 1 h
Compound = C[C@@H]1O[C@@H](O[C@H]2[C@H](Oc3cc(O)c4c(c3)O[C@H](c3ccc(O)cc3)CC4=O)O[C@H](CO)[C@@H](O)[C@@H]2O)[C@H](O)[C@H](O)[C@H]1O; system = Sprague Dawley rat, plasma; conditions = oral, 10 g lyophilized powder/kg, high dose; Tmax = 0.1 ± 0.04 h
Compound = Cc1ccc2cc(N3CCC4(O)C(=O)c5cc(C)c(C)cc5N=C34)ccc2n1 (stereo not shown); system = rat, plasma; conditions = intravenous, 2 mg/kg; Tmax = 0.08 h
Compound = CC1(C)[C@@H](O)CC[C@]2(C)[C@H]3C(=O)C=C4[C@@H]5C[C@@](C)(C(=O)O)CC[C@]5(C)CC[C@@]4(C)[C@]3(C)CC[C@@H]12; system = Sprague Dawley rat, plasma; conditions = oral, 3.34 g lyophilized powder/kg, low dose; Tmax = 1.96 ± 1.05 h
Compound = COC[C@]12CN(C)[C@@H]3[C@@H]4[C@H](OC)[C@H]1[C@@]3([C@@H](OC)C[C@H]2O)[C@@H]1C[C@@]2(O)[C@H](OC(=O)c3ccccc3)[C@@H]1[C@]4(OC(C)=O)[C@@H](O)[C@@H]2OC; system = Sprague-Dawley rat, plasma; conditions = oral, dose not given, with H in PCW extract; Tmax = 0.75 h
Compound = CC1(C)[C@@H](O[C@H]2O[C@H](C(=O)O)[C@@H](O)[C@H](O)[C@H]2O[C@@H]2O[C@H](C(=O)O)[C@@H](O)[C@H](O)[C@H]2O)CC[C@]2(C)[C@H]3C(=O)C=C4[C@@H]5C[C@@](C)(C(=O)O)CC[C@]5(C)CC[C@@]4(C)[C@]3(C)CC[C@@H]12; system = Sprague Dawley rat, plasma; conditions = oral, 3.34 g lyophilized powder/kg, low dose; Tmax = 6.22 ± 1.56 h
Compound = [Se]; system = rat, plasma; conditions = intraperitoneal, 1 mg/kg, sodium selenate; Tmax = 0.5 h
Compound = Brc1ccc2c(c1)C(c1ccccn1)=NCc1c(-c3cnco3)ncn1-2; system = Sprague-Dawley rat, male, plasma; conditions = oral, 2 mg/kg; Tmax = 1 h
Compound = Cc1cc(O)c(C(=O)CCC(C)C)c(=O)o1; system = Sprague Dawley rat, plasma; conditions = oral, 3.34 g lyophilized powder/kg, low dose; Tmax = 2.32 ± 1.6 h

Excerpt of the above:
Compound = COc1ccc(-c2cc(=O)c3c(OC)c(OC)c(OC)c(OC)c3o2)cc1OC; system = Sprague Dawley rat, plasma; conditions = oral, 10 g lyophilized powder/kg, high dose; Tmax = 2.07 ± 1.1 h
Compound = O=C1C[C@@H](c2ccc(O)cc2)Oc2cc(O)ccc21; system = Sprague Dawley rat, plasma; conditions = oral, 3.34 g lyophilized powder/kg, low dose; Tmax = 3.45 ± 2.39 h
